Published values from different studies.
Parts stem from different laboratories: compare values within a part only. Changes are numbered by the printed parent chain.

Study 1
Target: Interferon regulatory factor 5, full length, phosphomimetic (IRF5, Homo sapiens, UniProt Q13568-2, residues 1-514, K96S/S451D/S453D/S456D/S462D)
Method: protein-binding microarray
Molecule type: double-stranded DNA, one strand shown
Sample: in vitro
Tested at: 250 nM
Setting: 60-bp whole probe
With: salmon DNA 0.4 mg/ml
Reference: random background probes
Direction: higher = stronger binding
All sequences stand within: GCCTAGCAC … GTCTTGATTCGCTTGACGCTGCTG
`GACGGACTGGGTCTCGCGACGTGCTAG` has a log fluorescence of -0.724 z-score.
With `CAAGTTTGCCTCCTTCAGTCAGTGCTA` the log fluorescence was 0.0688 z-score.
`GACGGTCTGGGTCTCGGGACGTGCTAG` has a log fluorescence of -0.753 z-score.
The log fluorescence of `TTAGAACTCGGGTATCGATTAGTGCTA` is reported as 3.35 z-score.
`GACGGACTGGGTATCGGGATGTGCTAG` has a log fluorescence of 0.624 z-score.
With `GACGGTTTCGACCTTCGGGACGTGCTA` the log fluorescence was 4.68 z-score.
`TTAGATTTCAGTTCCAATTAGTGCTAG` has a log fluorescence of 2.17 z-score.
For `GTGAGTCCCACATCTCTGTCCGTGCTA`, the log fluorescence was -0.307 z-score.
`TTAGGTATCGACTATCTGTTAGTGCTA` gave a log fluorescence of 4.36 z-score.

Study 2
Target: Sal-like protein 4, full length isoform B (SALL4, Homo sapiens, UniProt Q9UJQ4-2, residues 1-616)
Method: universal PBM
Molecule type: double-stranded DNA, one strand shown
Sample: in vitro
Tested at: not given
Setting: 8-mer, flanks averaged, mean of replicates
Direction: higher = stronger binding
Residues (chain): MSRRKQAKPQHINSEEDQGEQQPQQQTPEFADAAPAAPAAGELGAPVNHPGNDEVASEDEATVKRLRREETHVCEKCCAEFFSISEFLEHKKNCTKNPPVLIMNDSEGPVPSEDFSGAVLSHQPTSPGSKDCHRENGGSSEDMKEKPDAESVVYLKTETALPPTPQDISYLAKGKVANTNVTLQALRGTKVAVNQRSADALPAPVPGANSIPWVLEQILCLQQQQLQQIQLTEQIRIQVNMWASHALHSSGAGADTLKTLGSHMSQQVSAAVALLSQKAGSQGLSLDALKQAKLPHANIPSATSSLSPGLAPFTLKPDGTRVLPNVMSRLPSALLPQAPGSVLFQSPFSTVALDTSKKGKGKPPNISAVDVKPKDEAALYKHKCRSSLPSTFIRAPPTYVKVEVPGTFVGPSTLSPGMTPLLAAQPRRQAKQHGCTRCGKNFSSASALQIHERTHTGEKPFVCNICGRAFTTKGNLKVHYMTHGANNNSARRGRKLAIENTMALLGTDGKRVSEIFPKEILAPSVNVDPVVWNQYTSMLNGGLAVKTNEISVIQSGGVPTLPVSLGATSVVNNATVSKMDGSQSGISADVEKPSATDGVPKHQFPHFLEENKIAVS
The E-score of `AGAAGAAG` is reported as -0.0891.
With `TCAGATAA` the E-score was 0.144.
`ACCTACAA` gave an E-score of 0.18.
With `CGAGCGCG` the E-score was -0.224.
For `AGACCCTA`, the E-score was -0.0796.
With `GAAGGAGC` the E-score was -0.206.
The E-score of `CGAGCCGC` is reported as -0.152.
With `AGGCCATG` the E-score was -0.202.
With `CGCCTTAA` the E-score was -0.127.
`AGGTAAAT` has an E-score of 0.286.

Study 3
Target: CCNE1, cyclin fold, Cln2 fusion (human)
Method: yeast growth competition, sequencing
Sample: yeast
Setting: strong parent motif
Reference: not given
Direction: higher = stronger binding
Starting sequence: BRCA2 docking peptide (human); PSIKRNLLNEFDR
Under “normalised enrichment score”, `PSIKRNLLNVFDR [E10V]` is recorded as 0.872.
`PSIKYNLLNEFDR [R5Y]`: “normalised enrichment score” 0.348.
`PSIKRNLLNEFDI [R13I]` — result for “normalised enrichment score”: 3.13.
`PSIKDNLLNEFDR [R5D]`: “normalised enrichment score” 0.746.
For `PSIKRNLLNECDR [F11C]`, “normalised enrichment score” read -0.655.
Under “normalised enrichment score”, `PSIKRVLLNEFDR [N6V]` is recorded as 0.983.
For `PSIQRNLLNEFDR [K4Q]`, “normalised enrichment score” read -0.106.
For `PSIKRNLLNEFDN [R13N]`, “normalised enrichment score” read 2.1.

Other studies, line by line
For `PhoQ, residues 284 288 289 292 302 303 QWQEDG`, the fold induction was 0.801 (PhoP, residues 12 14 15 18 19 NIMAP (Escherichia coli, UniProt P23836); Sort-seq, item: YFP reporter; E. coli; PhoQ-PhoP variant library, with: 10 µM Mg2+; reference: high Mg2+ state, higher = stronger signaling).

For quick reference, copied from above (study 3):
Under “normalised enrichment score”, `PSIKRVLLNEFDR [N6V]` is recorded as 0.983.
For `PSIKRNLLNECDR [F11C]`, “normalised enrichment score” read -0.655.
Under “normalised enrichment score”, `PSIKRNLLNVFDR [E10V]` is recorded as 0.872.
`PSIKRNLLNEFDI [R13I]` — result for “normalised enrichment score”: 3.13.
